Measured values pooled from the literature.
Parts stem from different laboratories: compare values within a part only. “And” joins repeats or separate records; there may be more than shown.
Sequence of UniProt Q9UBF8 (whole entry, looked up): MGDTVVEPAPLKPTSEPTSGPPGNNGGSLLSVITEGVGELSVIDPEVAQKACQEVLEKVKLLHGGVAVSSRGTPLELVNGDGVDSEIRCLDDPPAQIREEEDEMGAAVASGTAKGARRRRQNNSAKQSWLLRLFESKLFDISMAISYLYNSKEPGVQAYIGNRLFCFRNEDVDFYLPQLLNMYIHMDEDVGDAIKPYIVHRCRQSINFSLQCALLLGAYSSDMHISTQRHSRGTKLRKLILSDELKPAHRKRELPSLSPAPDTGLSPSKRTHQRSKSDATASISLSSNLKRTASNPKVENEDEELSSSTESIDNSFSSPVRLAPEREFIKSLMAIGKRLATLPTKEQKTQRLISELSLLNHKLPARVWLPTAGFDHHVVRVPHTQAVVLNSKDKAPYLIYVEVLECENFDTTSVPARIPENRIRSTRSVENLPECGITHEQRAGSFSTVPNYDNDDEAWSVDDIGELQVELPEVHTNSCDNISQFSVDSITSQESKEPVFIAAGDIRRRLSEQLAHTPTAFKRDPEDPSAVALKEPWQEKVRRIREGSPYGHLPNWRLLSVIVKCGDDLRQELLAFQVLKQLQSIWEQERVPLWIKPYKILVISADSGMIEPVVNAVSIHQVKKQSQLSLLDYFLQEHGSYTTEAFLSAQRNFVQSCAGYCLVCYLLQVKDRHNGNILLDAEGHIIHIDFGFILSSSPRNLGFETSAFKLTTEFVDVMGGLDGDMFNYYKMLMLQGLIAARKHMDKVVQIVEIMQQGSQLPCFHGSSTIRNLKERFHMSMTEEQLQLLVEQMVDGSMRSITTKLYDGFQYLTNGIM
Sequence of UniProt O75914 (whole entry, looked up): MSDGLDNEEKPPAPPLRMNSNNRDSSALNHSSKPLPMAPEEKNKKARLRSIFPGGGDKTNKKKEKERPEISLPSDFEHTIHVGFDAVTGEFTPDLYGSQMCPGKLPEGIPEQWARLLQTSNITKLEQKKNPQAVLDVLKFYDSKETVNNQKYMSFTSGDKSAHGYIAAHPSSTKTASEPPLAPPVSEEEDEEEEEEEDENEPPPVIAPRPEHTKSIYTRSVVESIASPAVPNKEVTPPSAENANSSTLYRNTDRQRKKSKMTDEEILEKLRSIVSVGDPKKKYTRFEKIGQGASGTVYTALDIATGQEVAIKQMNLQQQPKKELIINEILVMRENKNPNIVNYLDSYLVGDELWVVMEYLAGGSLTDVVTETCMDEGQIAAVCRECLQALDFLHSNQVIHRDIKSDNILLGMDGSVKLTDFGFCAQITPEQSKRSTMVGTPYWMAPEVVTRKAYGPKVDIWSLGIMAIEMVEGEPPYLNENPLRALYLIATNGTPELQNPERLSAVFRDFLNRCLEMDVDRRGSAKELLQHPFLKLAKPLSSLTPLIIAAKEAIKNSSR
Sequence of UniProt Q02750 (whole entry, looked up): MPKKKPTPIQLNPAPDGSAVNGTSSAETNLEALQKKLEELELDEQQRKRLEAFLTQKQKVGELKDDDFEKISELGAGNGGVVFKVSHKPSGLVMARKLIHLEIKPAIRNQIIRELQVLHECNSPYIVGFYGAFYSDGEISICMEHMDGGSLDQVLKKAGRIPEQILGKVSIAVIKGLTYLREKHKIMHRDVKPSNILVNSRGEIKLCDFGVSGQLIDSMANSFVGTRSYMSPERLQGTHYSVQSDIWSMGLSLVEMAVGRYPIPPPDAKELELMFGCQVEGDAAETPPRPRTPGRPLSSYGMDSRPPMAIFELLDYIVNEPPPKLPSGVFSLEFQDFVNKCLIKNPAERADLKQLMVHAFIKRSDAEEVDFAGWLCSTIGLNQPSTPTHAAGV
Sequence of UniProt P49761 (whole entry, looked up): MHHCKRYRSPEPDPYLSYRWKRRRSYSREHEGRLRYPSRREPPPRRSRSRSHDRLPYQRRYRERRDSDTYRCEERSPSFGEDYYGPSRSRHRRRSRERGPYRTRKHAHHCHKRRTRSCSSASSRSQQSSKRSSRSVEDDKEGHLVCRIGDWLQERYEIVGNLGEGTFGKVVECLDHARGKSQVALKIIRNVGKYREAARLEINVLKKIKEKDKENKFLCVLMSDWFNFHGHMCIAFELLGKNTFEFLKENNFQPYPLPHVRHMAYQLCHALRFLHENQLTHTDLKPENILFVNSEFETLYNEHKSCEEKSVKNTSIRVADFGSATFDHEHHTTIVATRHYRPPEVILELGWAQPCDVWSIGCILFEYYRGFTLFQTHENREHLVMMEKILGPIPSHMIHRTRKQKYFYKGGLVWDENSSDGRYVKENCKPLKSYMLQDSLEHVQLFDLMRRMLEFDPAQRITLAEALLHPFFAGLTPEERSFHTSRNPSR
Sequence of UniProt Q16566 (whole entry, looked up): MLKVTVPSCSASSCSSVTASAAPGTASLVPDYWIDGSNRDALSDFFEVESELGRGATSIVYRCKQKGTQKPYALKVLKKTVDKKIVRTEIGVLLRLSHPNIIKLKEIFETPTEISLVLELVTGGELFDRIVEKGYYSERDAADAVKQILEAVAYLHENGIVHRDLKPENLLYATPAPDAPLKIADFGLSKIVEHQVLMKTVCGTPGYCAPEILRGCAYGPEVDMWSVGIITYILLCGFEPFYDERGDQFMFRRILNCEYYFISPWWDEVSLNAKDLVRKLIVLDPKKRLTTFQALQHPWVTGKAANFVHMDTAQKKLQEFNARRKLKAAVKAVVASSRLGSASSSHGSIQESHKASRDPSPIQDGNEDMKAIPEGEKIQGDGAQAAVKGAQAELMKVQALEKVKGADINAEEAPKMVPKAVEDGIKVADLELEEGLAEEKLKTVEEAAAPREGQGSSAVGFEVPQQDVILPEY
Sequence of UniProt P00519 (whole entry, unmodified, looked up): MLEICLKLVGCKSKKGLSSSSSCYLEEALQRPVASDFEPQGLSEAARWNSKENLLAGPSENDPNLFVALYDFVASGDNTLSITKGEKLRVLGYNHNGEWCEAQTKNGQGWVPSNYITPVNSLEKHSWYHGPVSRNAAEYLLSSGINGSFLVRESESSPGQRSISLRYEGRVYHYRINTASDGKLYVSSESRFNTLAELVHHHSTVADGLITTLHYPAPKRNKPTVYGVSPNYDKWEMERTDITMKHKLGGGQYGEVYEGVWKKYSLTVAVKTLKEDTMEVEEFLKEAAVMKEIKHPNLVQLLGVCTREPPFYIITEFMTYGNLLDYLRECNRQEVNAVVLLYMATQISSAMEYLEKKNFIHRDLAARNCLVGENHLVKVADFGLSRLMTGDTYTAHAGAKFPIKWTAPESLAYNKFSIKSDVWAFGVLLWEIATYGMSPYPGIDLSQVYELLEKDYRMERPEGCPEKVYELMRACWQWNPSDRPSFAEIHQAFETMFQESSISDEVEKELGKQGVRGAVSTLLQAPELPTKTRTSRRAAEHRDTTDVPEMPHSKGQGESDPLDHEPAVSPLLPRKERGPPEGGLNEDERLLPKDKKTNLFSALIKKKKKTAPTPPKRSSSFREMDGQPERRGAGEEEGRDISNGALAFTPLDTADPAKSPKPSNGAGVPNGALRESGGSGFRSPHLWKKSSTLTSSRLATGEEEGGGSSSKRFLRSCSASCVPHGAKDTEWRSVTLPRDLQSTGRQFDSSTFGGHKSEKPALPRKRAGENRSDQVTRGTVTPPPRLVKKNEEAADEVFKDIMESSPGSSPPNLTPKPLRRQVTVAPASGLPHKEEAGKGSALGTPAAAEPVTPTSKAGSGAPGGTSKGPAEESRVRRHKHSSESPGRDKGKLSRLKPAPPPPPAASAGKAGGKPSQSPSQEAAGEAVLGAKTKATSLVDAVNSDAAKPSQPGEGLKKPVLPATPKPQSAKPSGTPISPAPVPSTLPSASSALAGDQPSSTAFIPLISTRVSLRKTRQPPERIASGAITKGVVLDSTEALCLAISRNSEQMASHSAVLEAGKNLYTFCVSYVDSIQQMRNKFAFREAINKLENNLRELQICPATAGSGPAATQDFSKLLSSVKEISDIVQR
Sequence of UniProt Q9HAZ1 (whole entry, looked up): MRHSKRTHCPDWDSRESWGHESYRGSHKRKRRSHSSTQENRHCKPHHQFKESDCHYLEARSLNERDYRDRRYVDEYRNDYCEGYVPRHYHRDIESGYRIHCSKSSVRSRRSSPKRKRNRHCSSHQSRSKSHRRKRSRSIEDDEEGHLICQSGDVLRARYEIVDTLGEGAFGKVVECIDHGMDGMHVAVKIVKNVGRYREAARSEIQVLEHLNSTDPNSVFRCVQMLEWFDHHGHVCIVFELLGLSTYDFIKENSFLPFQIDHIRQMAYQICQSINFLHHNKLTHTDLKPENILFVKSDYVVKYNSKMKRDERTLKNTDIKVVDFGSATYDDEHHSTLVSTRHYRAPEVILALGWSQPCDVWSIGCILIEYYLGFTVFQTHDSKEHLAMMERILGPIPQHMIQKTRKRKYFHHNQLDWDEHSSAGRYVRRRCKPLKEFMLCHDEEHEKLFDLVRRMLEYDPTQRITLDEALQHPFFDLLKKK
Sequence of UniProt Q13163 (whole entry, looked up): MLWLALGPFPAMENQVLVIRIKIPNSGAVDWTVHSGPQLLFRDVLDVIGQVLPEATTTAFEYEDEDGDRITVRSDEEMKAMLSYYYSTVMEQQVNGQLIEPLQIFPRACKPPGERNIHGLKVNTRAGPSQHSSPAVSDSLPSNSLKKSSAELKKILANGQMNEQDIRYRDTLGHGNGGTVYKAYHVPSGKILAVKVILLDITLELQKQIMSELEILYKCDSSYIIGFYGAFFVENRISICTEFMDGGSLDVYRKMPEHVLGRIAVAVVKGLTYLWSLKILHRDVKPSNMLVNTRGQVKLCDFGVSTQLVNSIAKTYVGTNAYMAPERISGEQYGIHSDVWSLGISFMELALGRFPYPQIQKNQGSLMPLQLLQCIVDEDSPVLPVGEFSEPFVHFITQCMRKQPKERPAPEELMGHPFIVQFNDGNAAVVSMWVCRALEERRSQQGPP

Study 1
Cell line: mouse MPNST tumor cells
Method: high-content nuclear imaging
Refers to: cell number
Tested at: 10 µM
Time: 12 h
Notes: mean of 2 replicates
Relative to: plate mean
Reading: higher = more cells
For `COC(=O)C1=C(C)NC(C)=C([N+](=O)[O-])[C@H]1c1ccccc1C(F)(F)F`, the nuclei count was 0.828 z-score.
The nuclei count of `NC(=O)c1cn(C2OC(CO)C(O)C2O)c2ncnc(N)c2c1=O` (stereo not shown) is reported as -3.27 z-score.
For `CC(C)(O)c1ccccc1CC[C@@H](SCC1(CC(=O)O)CC1)c1cccc(/C=C/c2ccc3ccc(Cl)cc3n2)c1`, the nuclei count was 0.604 z-score and 0.463 z-score.
`NS(=O)(=O)c1cc2c(cc1Cl)NCNS2(=O)=O` gave a nuclei count of -0.736 z-score.
For `O=C(/C=C/N1C[C@H]2C[C@@H]1CN2c1ccccn1)c1ccccc1O`, the nuclei count was -0.507 z-score.
`CCCCNNC(=O)c1ccc(Br)cc1` has a nuclei count of 1.26 z-score.
`CS(=O)(=O)c1cccc(CNc2nc(Nc3ccc4c(c3)CCC(=O)N4)ncc2C(F)(F)F)c1` has a nuclei count of -1.38 z-score.
With `C[C@H](NC[C@H](O)CP(=O)(O)Cc1ccccc1)c1ccc(Cl)c(Cl)c1` the nuclei count was 1.79 z-score.
With `CCN(C(=O)c1ccccc1OC)c1cc2c(cc1N1CCNCC1C)n(C)c(=O)n2C` (stereo not shown) the nuclei count was 0.417 z-score.

Study 2
Compound: CO[C@@H]1[C@H](N(C)C(=O)c2ccccc2)C[C@H]2O[C@]1(C)n1c3ccccc3c3c4c(c5c6ccccc6n2c5c31)C(=O)NC4
Read-out: enzyme activity
Mode: inhibitor
Tested at: 1 µM
The inhibition was 0% (Mitogen-activated protein kinase kinase kinase 20 (MAP3K20, Homo sapiens, UniProt Q9NYL2)).
The inhibition was 0% (Interferon-induced, double-stranded RNA-activated protein kinase (EIF2AK2, Homo sapiens, UniProt P19525)).
For TGF-beta receptor type-2 (TGFBR2, Homo sapiens, UniProt P37173): inhibition read 0%.
The inhibition was 0% (Ephrin type-B receptor 3 (EPHB3, Homo sapiens, UniProt P54753)).
For Receptor tyrosine-protein kinase erbB-3 (ERBB3, Homo sapiens, UniProt P21860): inhibition read 11%.
Phosphatidylinositol 4-kinase beta (PI4KB, Homo sapiens, UniProt Q9UBF8) — inhibition: 20%.
For Macrophage colony-stimulating factor 1 receptor, autoinhibited (CSF1R, Homo sapiens, UniProt P07333): inhibition read 89%.

Study 3
SMILES: O=C(N1CCS(=O)(=O)CC1)N1C[C@H](c2ccc(OC(F)(F)F)cc2)C[C@H](c2nc(C3CC3)no2)C1
Method: competition with immobilised ligand
Tested at: 1 µM
The remaining binding was 92% (Tyrosine-protein kinase ABL1, phosphorylated (ABL1, Homo sapiens, UniProt P00519, F317L); cell-free assay).
5'-AMP-activated protein kinase catalytic subunit alpha-1 (PRKAA1, Homo sapiens, UniProt Q13131); cell-free assay — remaining binding: 100%.
Dual specificity mitogen-activated protein kinase kinase 5 (MAP2K5, Homo sapiens, UniProt Q13163); cell-free assay — remaining binding: 100%.
For Serine/threonine-protein kinase PLK2 (PLK2, Homo sapiens, UniProt Q9NYY3); cell-free assay: remaining binding read 100%.
It gave 100% for remaining binding (Ribosomal protein S6 kinase alpha-3, C-terminal kinase domain (RPS6KA3, Homo sapiens, UniProt P51812); cell-free assay).
For Vascular endothelial growth factor receptor 2 (KDR, Homo sapiens, UniProt P35968); cell-free assay: remaining binding read 88%.
The remaining binding was 100% (Tyrosine-protein kinase TXK (TXK, Homo sapiens, UniProt P42681); binding).
STE20/SPS1-related proline-alanine-rich protein kinase (STK39, Homo sapiens, UniProt Q9UEW8); cell-free assay — remaining binding: 100%.

Study 4
SMILES: CN([C@@H](Cc1ccc(OS(=O)(=O)c2cccc3cnccc23)cc1)C(=O)N1CCN(c2ccccc2)CC1)S(=O)(=O)c1cccc2cnccc12
Read-out: enzyme activity
Mode: inhibitor
Tested at: 0.5 µM
Relative to: control
It gave 88.5% for remaining activity (Myosin-IIIb (MYO3B, Homo sapiens, UniProt Q8WXR4)).
The remaining activity was 98.2% (Misshapen-like kinase 1 (MINK1, Homo sapiens, UniProt Q8N4C8)).
For RAC-beta serine/threonine-protein kinase (AKT2, Homo sapiens, UniProt P31751): remaining activity read 106%.
Mitogen-activated protein kinase 1 (MAPK1, Homo sapiens, UniProt P28482) — remaining activity: 95.5%.
The remaining activity was 102% (Calcium/calmodulin-dependent protein kinase type IV (CAMK4, Homo sapiens, UniProt Q16566)).
For Dual specificity mitogen-activated protein kinase kinase 1 (MAP2K1, Homo sapiens, UniProt Q02750): remaining activity read 75.3%.
The remaining activity was 103% (Serine/threonine-protein kinase MRCK beta (CDC42BPB, Homo sapiens, UniProt Q9Y5S2)).
Dual specificity protein kinase CLK3 (CLK3, Homo sapiens, UniProt P49761) — remaining activity: 103%.
The remaining activity was 94.1% (Serine/threonine-protein kinase DCLK2 (DCLK2, Homo sapiens, UniProt Q8N568)).
It gave 102% for remaining activity (Serine/threonine-protein kinase PAK 3 (PAK3, Homo sapiens, UniProt O75914)).
Dual specificity protein kinase CLK4 (CLK4, Homo sapiens, UniProt Q9HAZ1) — remaining activity: 97.2%.
It gave 99.5% for remaining activity (cGMP-dependent protein kinase 2 (PRKG2, Homo sapiens, UniProt Q13237)).
The remaining activity was 99.8% (Serine/threonine-protein kinase Nek3 (NEK3, Homo sapiens, UniProt P51956)).

Some of these lines once more (study 4):
It gave 102% for remaining activity (Serine/threonine-protein kinase PAK 3 (PAK3, Homo sapiens, UniProt O75914)).
Dual specificity protein kinase CLK4 (CLK4, Homo sapiens, UniProt Q9HAZ1) — remaining activity: 97.2%.
It gave 99.5% for remaining activity (cGMP-dependent protein kinase 2 (PRKG2, Homo sapiens, UniProt Q13237)).
The remaining activity was 99.8% (Serine/threonine-protein kinase Nek3 (NEK3, Homo sapiens, UniProt P51956)).
